Results gathered from unrelated publications.
Each numbered part is a random draw from the data of one study; scales do not carry over between parts. Changes are numbered by the printed parent chain.

Study 1
Target: Ras GTPase-activating protein-binding protein 1, full length (G3BP1, Homo sapiens, UniProt Q13283)
Chain of UniProt Q13283 (whole entry, looked up): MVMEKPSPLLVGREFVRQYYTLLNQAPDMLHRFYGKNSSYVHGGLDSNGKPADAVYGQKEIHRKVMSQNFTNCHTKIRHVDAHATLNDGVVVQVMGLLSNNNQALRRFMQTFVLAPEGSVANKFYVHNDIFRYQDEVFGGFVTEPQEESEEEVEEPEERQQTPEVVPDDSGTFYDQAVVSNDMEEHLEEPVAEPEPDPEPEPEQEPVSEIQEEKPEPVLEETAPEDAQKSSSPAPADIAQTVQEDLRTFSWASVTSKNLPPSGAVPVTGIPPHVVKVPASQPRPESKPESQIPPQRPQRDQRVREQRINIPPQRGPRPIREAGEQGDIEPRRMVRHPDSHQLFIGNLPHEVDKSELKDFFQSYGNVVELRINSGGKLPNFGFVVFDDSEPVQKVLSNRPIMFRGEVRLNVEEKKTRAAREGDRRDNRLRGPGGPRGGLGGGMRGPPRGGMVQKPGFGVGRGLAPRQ
Method: RNA Bind-n-Seq
Form: RNA
Sample: in vitro
Tested at: 200 nM
Setting: whole 134-nt RNA, ends assumed
With: 150 mM KCl
Reference: input library
Direction: higher = stronger binding
Shared flanks, not repeated: GGGAGUUCUACAGUCCGACGAUC … UGGAAUUCUCGGGUGUCAAGG
Oligonucleotide | log2 enrichment
UCAAGUCCUGUGCUACACAUCGUAUGUACCGAAUCGGAAAGGAAAGGGAAAGGGGAAAGUAUUAUGUUACGCCGUUCGGAUCUGCACUUC | -0.714
AGUCCUGUGCUACACAUCGUAUGUACCGAAUCGGGUGGGAAAAAGGGAAAAAAAGGGAAAGUAUUAUGUUACGCCGUUCGGAUCUGCACU | -0.209
UGGCCCUGGUGGCAUGCGGGGAGGAAGAGGUGGCCUCAUGGAUCGUGGUGGUCCCGGUGGUAUGUUCAGAGGUGGCCGUGGUGGAGACAG | 0.182
UGUCCCUGGUGGCAUGCGGGGAGGAAGAGGUGGCCUCAUGGAUCGUGGUGGUCCCGGUGGAAUGUUCAGAGGUGGCCGUGGUGGAGACAG | 0.0978
UCCUGUGCUACACAUCGUAUGUACCGAAUCAAAUUUUUUUAAAUUUUUAAAUUUUUAAAAAAGUAUUAUGUUACGCCGUUCGGAUCUGCA | -0.734
CUCAAGUCCUGUGCUACACAUCGUAUGUACCGAAUCGGUUUUUGGAAAGGUGGAAAGUAUUAUGUUACGCCGUUCGGAUCUGCACUUCCA | -0.489
UGGGAGGUGGAUUUUGUUUAUUUUUUUAGCUCAUUUCCAGGGGUGGGAAUUUUUUUUUAGUAUGUGUCAUGAAUAAAGUUGUUUUUGAAA | 0.448
AAGUCCUGUGCUACACAUCGUAUGUACCGAAUCGGCCCCGGGCCCCGGCCCCGGGGAAAGUAUUAUGUUACGCCGUUCGGAUCUGCACUU | -1.07
CUCAAGUCCUGUGCUACACAUCGUAUGUACCGAAUCGGAGGUUUUUUUGGAGGAAAGUAUUAUGUUACGCCGUUCGGAUCUGCACUUCCA | -0.492
GUCCUGUGCUACACAUCGUAUGUACCGAAUCGGGUUUGGGUUUUUGGGAAAAAAAGGGAAAGUAUUAUGUUACGCCGUUCGGAUCUGCAC | -0.377
UCAAGUCCUGUGCUACACAUCGUAUGUACCGAAUCGGAAAAAGGUGGUUUUUGGAAAGUAUUAUGUUACGCCGUUCGGAUCUGCACUUCC | -1.07
UCAAGUCCUGUGCUACACAUCGUAUGUACCGAAUCGGGGUGGGGUGGGGUGGGGAAAGUAUUAUGUUACGCCGUUCGGAUCUGCACUUCC | 1.25
GUCCUGUGCUACACAUCGUAUGUACCGAAUCGGGAAAAAGGAAAAAGGGGAAAAAGGGGAAAGUAUUAUGUUACGCCGUUCGGAUCUGCA | -0.345
CACAGACAACACGCACCCACACAGACACAGAGGGAAGGGGUUGGGAUGGGGACAGAAAGCACAGCAGGGCGGGGUAGGACCCCAGCCCCU | 1.81

Study 2
Target: Histone acetyltransferase KAT6A, winged helix 2, GST fusion (KAT6A, Homo sapiens, UniProt Q92794, residues 85-181)
Method: protein binding microarray
Form: double-stranded DNA, one strand shown
Sample: in vitro
Tested at: not given
Setting: 8-mer, flanks averaged, mean of 2 arrays, mostly near background
Reference: not given
Direction: higher = stronger binding
Residues (chain): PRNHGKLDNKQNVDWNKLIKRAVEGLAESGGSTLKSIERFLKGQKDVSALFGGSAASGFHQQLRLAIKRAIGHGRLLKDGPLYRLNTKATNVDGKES
Oligonucleotide | E-score
AGGAAACA | 0.0388
GTAATCCA | -0.0487
AGTAACTA | 0.04
AAGCCGCA | 0.118
ATTTCCGG | -0.0336
GGCAACGA | 0.154
GCCTGTTA | -0.148
ACCGGCTA | -0.0271
ATCGAATC | 0.0195
CTTTGGGA | 0.0762
CAGTTCGC | 0.0292
CCTTCACC | -0.138
GCAGGGTA | -0.0424
ACGCGGAC | 0.187
GGGCGTGA | 0.187
ATCGATAA | -0.23
ATCTGCAC | -0.0538
CTGAGAAA | -0.0498
CAAACGTA | -0.159
CCCCTCGG | 0.293
GAGTGAGC | 0.0478

Study 3
Target: Sal-like protein 4, full length isoform B (SALL4, Homo sapiens, UniProt Q9UJQ4-2, residues 1-616)
Method: universal PBM
Form: double-stranded DNA, one strand shown
Sample: in vitro
Tested at: not given
Setting: 8-mer, flanks averaged, mean of replicates
Direction: higher = stronger binding
Oligonucleotide | E-score
GACAACGC | -0.16
TCCATCAA | 0.243
AGTACAGC | -0.115
AGGCGACG | -0.186
TCGAAAAA | 0.266
CGCTACCA | -0.192
GATGAGAA | 0.00947
CCTTCACC | -0.147
AATGGGTA | 0.187
ATCGAATG | 0.132
GATAGGCC | -0.228
ATTTGATG | 0.206
CAAAGTGA | -0.0326
ATCTGCAA | 0.0648
AAATGCAT | 0.187
TAATGATA | 0.333

Study 4
Target: PABPC1L2, full length, GST fusion (mouse, UniProt A0ABA7IW68)
Method: RNAcompete
Form: RNA
Sample: in vitro
Tested at: 20 nM
Setting: 7-mer, probes averaged, single round
Reference: mean of 7-mers
Direction: higher = stronger binding
Construct (chain): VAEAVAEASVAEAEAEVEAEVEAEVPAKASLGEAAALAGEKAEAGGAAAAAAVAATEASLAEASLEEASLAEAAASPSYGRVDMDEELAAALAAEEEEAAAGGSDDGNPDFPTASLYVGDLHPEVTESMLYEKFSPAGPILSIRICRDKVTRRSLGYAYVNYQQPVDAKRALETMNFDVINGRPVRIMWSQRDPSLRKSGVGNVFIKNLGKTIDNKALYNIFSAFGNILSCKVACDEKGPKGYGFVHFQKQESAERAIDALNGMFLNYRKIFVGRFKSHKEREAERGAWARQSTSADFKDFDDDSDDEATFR
Oligonucleotide | 7-mer Z-score
AAGGAAA | 0.711
UCAUUAG | -0.22
GCGGCAU | -0.13
AACUACG | 0.0551
UAGACGA | 0.0587
UUUUAAU | -0.113
GUCCAAC | -0.0953
GCGUUAU | -0.333
AUCACUA | -0.0899
CUGACCC | -0.32
CACUGGU | -0.137
UGCAGUA | -0.22
GCCGUAU | -0.376
AGUUGUA | -0.157
UCCGGGC | 0.0315
GAACUUC | -0.246
UUUAGUA | 0.0605
ACUGGAU | -0.05
AGGCAUG | 0.128
GCUAGGA | 0.231
AAGACAC | 0.35
ACCCUGG | -0.306
UUCCUCG | -0.396
CGCUGAG | -0.0627
UUUGCUC | -0.46

Study 5
Target: ABI1, truncated, D143A, DHFR fusion (Arabidopsis thaliana)
Method: DHFR PCA, deep sequencing
Sample: yeast
Setting: methotrexate growth selection, single substitutions
With: (+)-ABA 0 µM
Reference: wild-type fitted maximum
Direction: higher = stronger binding
Starting sequence: PYL1, truncated, DHFR fusion (Arabidopsis thaliana); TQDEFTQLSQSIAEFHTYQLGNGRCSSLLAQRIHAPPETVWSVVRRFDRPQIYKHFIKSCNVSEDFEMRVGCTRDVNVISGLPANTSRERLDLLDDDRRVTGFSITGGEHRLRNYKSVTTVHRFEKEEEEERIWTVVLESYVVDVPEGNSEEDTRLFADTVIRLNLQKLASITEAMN
Variant | relative binding score [%]
W41V | -0.311
V137M | 1.94
I79R | 0.902
Q19Y | 4.41
R46S | 3.86
H110W | 78.7
R155H | -0.392
G81D | 6.52
R69Y | 7.42
S11E | 40
V137L | -2.16
D65K | 3.99
E139A | 6.09
P50N | -3.2
V145T | -5
T173P | 0.00123
L28D | -4.02
E67D | 20.2

Study 6
Target: RNA binding protein fox-1 homolog 2, RRM domain, GST-SBP tag (RBFOX2, Homo sapiens, UniProt O43251-10, residues 100-194)
Method: RNA Bind-n-Seq
Form: RNA
Sample: in vitro
Tested at: 365 nM
Setting: natural RNA segment, single round, ends assumed
Reference: no-protein control
Direction: higher = stronger binding
Shared flanks, not repeated: GGGAGUUCUACAGUCCGACGAUC … UGGAAUUCUCGGGUGCCAA
Construct (chain): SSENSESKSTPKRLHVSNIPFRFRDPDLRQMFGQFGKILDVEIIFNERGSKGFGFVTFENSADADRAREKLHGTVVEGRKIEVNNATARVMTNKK
Oligonucleotide | RBNS enrichment (R)
ACUGAGGGCUCUGCGUCCCUGCAGUAAACAGGUGAGAUCUGCAGCAGGGCAGGGCUGCUUUAACAGGCAGGGGUGGCAGUAAGUCACAGCUGCUGCUGCUGUCGUCUGCC | 0.441
UCUUUAUGACAGGGAUCAGUGGCAUUUGUUUCCUAGCAGUAUUUAGCACCUUUUUGCCACCUUGGUGAACAGAAAAUUGUAUUUUCCUGUCUUUCAUGGCUGAAAACAAA | 0.284
GCUUUUGGUAUUUUCAUGUGUUACCUGCAUGUGAAUUUCUCAUGACUUUGUUUUUCUAGUUUCUUUUUUUUUUCUAAGAAGAGACUUGGAACGAGUCUGAUUCAUGGUGU | 0.343
AGUGUCUUCCUCCACGCGGAUUCCUGUACACCUUGAUCCAAAGCAGUGCUCCCAAGAGCAGCUCCUACGUGGUGCUGCCCGACACCAGCACAUGAGGGGCCGCUCUUCUG | 0.354
UUUUCCAUUCAGGCACCGAAAUAGUUAAUAUUUGAAAUAAGUCUUCAAAAGAAAACAUAAGAGAUUAUUGAGUUCUUGGGACUGGAUCCUUUAUUUCAUAAGUUCAGAUC | 0.562
UGUCCCCGCCCCAGCCGUCCUCCUGGGGUGGACCCUAGUUUAAUAAAGAUUCACCAAGUUUCACGCAUCUGCUGGCCUCCCCCUGUGAUUUCCUCUAAGCCCCAGCCUCA | 1.7
AUUCUUGACAUUUGGGUUUCAAAAUUGUGUUAGCACUUAUUUUAGAAACAUUAAUUAAGUGUAUGGCUGCCUUUGAAAUACUUGAUGUGUUGUUGUUGCCUUACAGAGGA | 0.35
AGCAAUUGGUGUUUCUAUGUGUUUUCUAAAUAGAGAUGAUAUCUUUUUUUUUUUCACUUAGAAUUUAGCUCCAUUUGCUUGAGAGAGGGGGAAAAAUUCAUAUCUGUUUC | 0.594
UCCGGGUGGGGUACCUACACUGAUGCUGCUAGAGGAACAGGUAAAGAUCCCAGAGGGAUAGAGGAGACAGUGAUCUGGGCUCUGUUUAGGAAUGGACUUUCCCCUAGGUA | 2.43
CAGGGGCUUAUAGCUGCUGUAUGAGAACAUAAAGACUAGUGCACAGUGCUAUCUCCAUCUACUGACUUGUGGUGUACACGUGCAUGUCUGGGUCUGUGGGUUUCUGUUGG | 1.22
CAGUGGAGGGUUUUUAUUUUUAUUUUUUUAAAAGUUUAGGUGCCUUUGCGGAUGACCUCAUUUUGAUGUUAAAAAAAAACUGAUUUUUUUAAUAUGUGGACGCUGCAAAA | 0.701
UGAGUACAGCAGGCAAAAGCCCAUACCAGGCAGCAUGUUGUGGAUGGUUUAGUUCUCCCCGCCUCCCUGUUUCUUGGAAAAGCUACAGGGUCCCUGUAGGGCAAAAUUCC | 1.58

A few entries again (study 2):
Oligonucleotide | E-score
AGTAACTA | 0.04
AAGCCGCA | 0.118
ATTTCCGG | -0.0336
GGCAACGA | 0.154
GCCTGTTA | -0.148
ACCGGCTA | -0.0271
ATCGAATC | 0.0195
CTTTGGGA | 0.0762
CAGTTCGC | 0.0292
CCTTCACC | -0.138
